Measurements collected from several papers.
Each numbered part is a random draw from the data of one study; scales do not carry over between parts. Changes are numbered by the printed parent chain.

Study 1
Target: Interferon regulatory factor 7, full length, phosphomimetic (IRF7, Homo sapiens, UniProt Q92985, residues 1-503, S471D/S472D/S475D/S476D/S477D/S483D/S484D/S487D)
Technique: protein-binding microarray
Form: double-stranded DNA, one strand shown
Sample: in vitro
Concentration: 2200 nM top
Setting: 60-bp whole probe
Added: salmon DNA 0.4 mg/ml
Reference: random background probes
Direction: higher = stronger binding
Endpoint: fitted relative affinity
All sequences stand within: GCCTAGCAC … GTCTTGATTCGCTTGACGCTGCTG
Target sequence (chain): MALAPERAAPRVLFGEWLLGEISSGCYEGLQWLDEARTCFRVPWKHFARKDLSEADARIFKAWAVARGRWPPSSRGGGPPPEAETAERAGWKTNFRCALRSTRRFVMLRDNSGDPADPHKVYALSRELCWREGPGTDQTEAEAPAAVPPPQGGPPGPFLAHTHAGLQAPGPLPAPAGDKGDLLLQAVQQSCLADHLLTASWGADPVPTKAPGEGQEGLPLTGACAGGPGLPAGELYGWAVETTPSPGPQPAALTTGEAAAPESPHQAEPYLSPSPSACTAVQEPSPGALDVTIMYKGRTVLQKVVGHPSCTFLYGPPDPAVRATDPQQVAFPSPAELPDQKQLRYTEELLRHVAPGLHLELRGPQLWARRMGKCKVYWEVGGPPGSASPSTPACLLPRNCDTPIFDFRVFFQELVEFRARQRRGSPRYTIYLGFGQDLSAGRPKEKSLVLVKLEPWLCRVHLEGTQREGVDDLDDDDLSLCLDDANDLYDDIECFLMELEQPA
TTAGGTTTCCTTTTGCTTTAGTGCTAG: 5.3 z-score
GTAGGTCTCGGACTGGGTTAGTGCTAG: -0.364 z-score
TTAGATACCGGGTATCGATTAGTGCTA: 0.515 z-score
TCATCCTCCTCTCTCTTACTGTGCTAG: 2.39 z-score
TTAGGTTTGGGTTTCGGTTAGTGCTAG: 4.58 z-score
TTAGGTATCGGGTTTCGGTTCGTGCTA: 8.59 z-score

Study 2
Target: Sal-like protein 4, full length isoform A (SALL4, Homo sapiens, UniProt Q9UJQ4, residues 1-1053)
Sequence of UniProt Q9UJQ4 (whole entry, looked up): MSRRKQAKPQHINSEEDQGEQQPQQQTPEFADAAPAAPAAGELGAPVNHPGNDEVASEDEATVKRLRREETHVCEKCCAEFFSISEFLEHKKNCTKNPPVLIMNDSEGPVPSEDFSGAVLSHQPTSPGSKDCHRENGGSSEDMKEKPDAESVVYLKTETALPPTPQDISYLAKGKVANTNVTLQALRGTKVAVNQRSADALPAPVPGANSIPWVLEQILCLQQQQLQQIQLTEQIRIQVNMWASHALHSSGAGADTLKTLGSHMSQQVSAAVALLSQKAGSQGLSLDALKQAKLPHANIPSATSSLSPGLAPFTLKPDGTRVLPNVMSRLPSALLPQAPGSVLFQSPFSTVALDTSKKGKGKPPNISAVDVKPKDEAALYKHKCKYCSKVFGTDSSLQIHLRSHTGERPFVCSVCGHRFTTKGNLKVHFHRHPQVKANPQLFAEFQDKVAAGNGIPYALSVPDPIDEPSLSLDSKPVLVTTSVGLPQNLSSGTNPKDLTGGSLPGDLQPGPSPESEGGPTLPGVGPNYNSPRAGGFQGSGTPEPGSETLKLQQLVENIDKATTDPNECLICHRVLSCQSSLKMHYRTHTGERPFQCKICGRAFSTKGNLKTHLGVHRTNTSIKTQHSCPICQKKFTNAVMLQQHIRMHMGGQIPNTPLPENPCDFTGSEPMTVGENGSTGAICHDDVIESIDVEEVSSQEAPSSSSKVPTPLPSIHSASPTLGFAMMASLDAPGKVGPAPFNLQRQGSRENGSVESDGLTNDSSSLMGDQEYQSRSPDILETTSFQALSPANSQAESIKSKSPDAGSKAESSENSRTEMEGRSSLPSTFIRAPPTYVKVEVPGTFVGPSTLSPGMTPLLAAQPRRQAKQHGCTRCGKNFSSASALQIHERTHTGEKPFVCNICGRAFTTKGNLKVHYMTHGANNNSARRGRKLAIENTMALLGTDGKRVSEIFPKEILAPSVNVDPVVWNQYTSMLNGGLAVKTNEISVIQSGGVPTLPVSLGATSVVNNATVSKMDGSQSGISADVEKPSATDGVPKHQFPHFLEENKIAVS
Technique: universal PBM
Form: double-stranded DNA, one strand shown
Sample: in vitro
Concentration: 600 nM
Setting: 8-mer, flanks averaged, mean of replicates
Direction: higher = stronger binding
Endpoint: E-score
GATTCTCA: 0.101
AGTCAGGG: -0.169
GTGTGCTA: -0.0362
ACTTGGCC: -0.176
ACACCGGC: -0.321

Study 3
Target: CCNA1, cyclin fold, Cln2 fusion (human)
Technique: yeast growth competition, sequencing
Sample: yeast
Setting: weak parent motif
Reference: not given
Direction: higher = stronger binding
Endpoint: normalised enrichment score
Starting sequence: WEE1 docking peptide (human); HKTFRKLRLFDTP
F10S: 0.0357
L7M: -0.27
K6I: 0.45
H1F: 0.0647

Single results of other studies
PhoQ, residues 284 288 289 292 302 303 SLCLSL  fold induction (PhoP, residues 12 14 15 18 19 IQSYL (Escherichia coli, UniProt P23836); Sort-seq, item: YFP reporter; E. coli; PhoQ-PhoP variant library, added: 10 µM Mg2+; reference: high Mg2+ state, higher = stronger signaling): 37

A few entries again (study 1):
TCATCCTCCTCTCTCTTACTGTGCTAG: 2.39 z-score
